Experimental data collected from several papers.
Each line is one published result; not all experiments were run side by side. ± marks the error that the study gave.

| Compound | target | assay | test system | setting | how to read | quantity | value |
| --- | --- | --- | --- | --- | --- | --- | --- |
| C[C@H](Cc1ccc(O)c(O)c1)[C@@H](C)Cc1ccc(O)c(O)c1 | Carbamate kinase (Giardia intestinalis, UniProt A8BB85) | enzyme activity, inhibitor, luminescence, ATP detection | Giardia lamblia |  |  | maximal inhibition | 81.3% |
| O=C(CCCCCCS)Nc1ccccc1 | HDAC8 (Homo sapiens, UniProt Q9BY41) | temperature-dependent ITC | Tris-HCl buffer | range from 5 °C |  | ΔCp | -0.27 ± 0.01 kcal mol^–1 K^–1 |
| Nc1nc2c(ncn2C2CC(O)C(COP(=O)(O)OP(=O)(O)C(F)(Cl)P(=O)(O)O)O2)c(=O)[nH]1 (mixture of isomers) | DNA polymerase beta (POLB, Homo sapiens, UniProt P06746, I260M) | nucleotide incorporation rate, substrate, single-turnover kinetics | single-nucleotide gapped DNA | 37 °C, I260M, misincorporation, added: dGTP opposite template A |  | kpol | 0.003 ± 0.0003 s⁻¹ |
| CNc1ccccc1C(=O)O[C@H]1C[C@H](n2cnc3c(N)ncnc32)O[C@@H]1COP(=O)(O)OP(=O)(O)O | Unconventional myosin-Va (Gallus gallus, UniProt Q02440, D297C/G292C/I296C/S293C/V295G) | van't Hoff analysis |  | concentration not given, added: 2 mM Mg2+ |  | T∆S of ligand binding | -2.9 ± 0.4 kcal/mol |
| COc1ccc(-c2cc(C(F)(F)F)nc(NCc3cccnc3)n2)cc1OC | Secretin receptor (SCTR, Homo sapiens, UniProt P47872) | cAMP, agonist |  |  |  | Emax | 27% |
| CN1CCN(CC(=O)N2N=C3/C(=C/c4ccccc4)CCCC3C2c2ccccc2)CC1 (mixture of isomers) | ALOX12 (Homo sapiens, UniProt P18054) | activator |  | 20 µM, added: arachidonic acid | baseline: activator 0 µM | enzyme activity | 83.3% |
| CC(=O)N[C@@H](Cc1c[nH]c2ccccc12)C(=O)N[C@@H](Cc1c[nH]c2ccccc12)C(=O)N[C@@H](Cc1c[nH]c2ccccc12)C(=O)N[C@@H](Cc1c[nH]c2ccccc12)C(=O)N[C@@H](Cc1c[nH]c2ccccc12)C(=O)N[C@@H](Cc1c[nH]c2ccccc12)C(=O)NCCCC[C@@H]1NC(=O)[C@H](CCCNC(=N)N)NC(=O)[C@H](CCCNC(=N)N)NC(=O)[C@H](CCCNC(=N)N)NC(=O)[C@H](CCCNC(=N)N)NC(=O)[C@H](CCCNC(=N)N)NC(=O)[C@H](CCCNC(=N)N)NC1=O | Cyclin-dependent kinase 2, with cyclin A1 (CDK2, Homo sapiens, UniProt P24941) | kinase activity, Reaction Biology radiometric |  | concentration not given, added: ATP 200 µM | baseline: DMSO | remaining activity | 5.9% |
| C[n+]1cn(C2OC(COP(=O)(O)OP(=O)([O-])OP(=O)(O)OCC3OC(n4cnc5c(=O)[nH]c(N)nc54)C(O)C3O)C(O)C2O)c2nc(NCc3ccc(Cl)cc3)[nH]c(=O)c21 (centres unmarked) | Eif4e (Mus musculus, UniProt P63073) | differential scanning fluorimetry |  | 100 µM |  | melting temperature | 51.5 °C |
| COc1ccc2c(c1)CC[C@@H]1[C@@H]2CC[C@@]2(C)C(=O)CC[C@@H]12 | AKR1C3 (Homo sapiens, UniProt P42330) | enzyme activity, inhibitor, absorbance |  | 100 µM, pH 9 |  | inhibition | 59.9% |
| Nc1nc2c(ncn2[C@H]2C[C@H](O)[C@@H](COP(=O)(O)OP(=O)(O)[C@H](Cl)P(=O)(O)O)O2)c(=O)[nH]1 | DNA polymerase beta (POLB, Homo sapiens, UniProt P06746, R183A) | substrate, pre-steady-state kinetics |  | incorporation opposite dC in gapped DNA |  | kpol | 1.5 ± 0.1 s⁻¹ |
| CCn1c(-c2cc(NC(=O)c3cnccn3)n[nH]2)cc2ccc(OC)cc21 | CSNK2A2 (Homo sapiens, UniProt P19784) | ATP-competitive test, ADP-Glo |  | added: ATP 10 to 500 µM | baseline: high over low ATP | IC50 fold shift | ~35 fold |
| Clc1ccc2c(NCc3ccc(OCCN4CCOCC4)cc3)ccnc2c1 | Nuclear receptor subfamily 4 group A member 2, ligand binding domain (Homo sapiens, UniProt P43354) | reporter gene, agonist, Gal4-Nurr1 hybrid reporter | HEK-293T | 30 µM, crude library product | baseline: vehicle (0.1% DMSO) | activation | ≤ 1.5 fold |
| Oc1cc(F)ccc1Oc1ccccc1 | Enoyl-[acyl-carrier-protein] reductase [NADPH] FabI (Staphylococcus aureus, UniProt Q6GI75) | binding |  |  |  | residence time | 2.4 min |
| [11CH3]Nc1ccc(-c2nc3ccc(O)cc3o2)cn1 | APP (Homo sapiens, UniProt P05067) | binding, PET | Alzheimer's disease patients, grey matter | unit not given | baseline: control subjects | effect size of DVR | 5.13 |
